Assay results from different studies.
Lines come from different studies, so protocols differ. “And” joins repeats or separate records; there may be more than shown. Numbers after ± are the reported error.

CCCCCCCCCCCC1CC(=O)N[C@H]([C@H](C)O)C(=O)N[C@@H](CN)C(=O)N[C@@H](CO)C(=O)N[C@@H](Cc2ccc(O)cc2)C(=O)O1 (some centres unmarked)
survival (HeLa; MTT; 32 mg): 87.4%

CNC(=O)C[C@H](Cc1ccncc1)NC(=O)[C@@H](Cc1cccc(Br)c1)NC(=O)[C@@H](N)Cc1ccsc1
viability (Huh-7-ACE2; CellTiter-Glo; 0.781 µM, 48 h, unit not given; reference: DMSO): 1.11 and 0.983 and 1.07

CC(=O)NCC(=O)N[C@@H](CCCNC(=N)N)C(=O)N[C@@H](CCCCN)C(=O)N[C@@H](CCCCN)C(=O)N[C@@H](CCCNC(=N)N)C(=O)N[C@@H](CCCNC(=N)N)C(=O)N[C@@H](CCC(N)=O)C(=O)N[C@@H](CCCNC(=N)N)C(=O)N[C@@H](CCCNC(=N)N)C(=O)N[C@@H](CCCNC(=N)N)C(=O)N1CCC[C@H]1C(=O)N[C@@H](CCC(N)=O)C(N)=O
concentration (HEK-293T; subcellular fractionation LC-MS; cytoplasmic fraction; 20 µM, 2 h): 39.7 nM and 31.8 nM and 29.4 nM

CN(C)CCCNC(=O)[C@@H]1NC(=O)[C@@H]2Cc3ccc(cc3)Oc3cc4cc(c3O)-c3ccc5c(c[nH]c5c3)C[C@@H](NC(=O)C(NC(=O)CCCCCN)c3ccc(O)cc3)C(=O)N[C@H](c3ccc(O)cc3)C(=O)N[C@H]4C(=O)N[C@@H](C(=O)N2C)c2ccc(cc2)Oc2cc1ccc2O (some centres unmarked)
hemolysis (human red blood cells; PBS; 2 µg/mL, 1 h, pH 7.4, 37 °C): 0.95%

O=c1n(CCNCCOS(=O)(=O)c2ccccc2)c(=O)n(S(=O)(=O)c2ccccc2)c(=O)n1S(=O)(=O)c1ccccc1
viability (HUVEC; cell growth or viability, MTT; 25 µg/mL, 24 h): 88.1%

CC[C@H](C)[C@H](NC(=O)[C@H](CCCNC(=N)N)NC(=O)[C@@H]1CCCN1C(=O)[C@H](CCCNC(=N)N)NC(=O)[C@H](Cc1ccccc1)NC(=O)[C@H](Cc1c[nH]cn1)NC(=O)[C@H](CCCNC(=N)N)NC(=O)[C@H](CC(C)C)NC(=O)[C@H](CCCCN)NC(=O)CNC(=O)[C@H](CC(C)C)NC(=O)[C@H](Cc1ccccc1)NC(=O)[C@H](CCCNC(=N)N)NC(=O)CNC(=O)[C@H](Cc1ccccc1)NC(=O)[C@H](CCCNC(=N)N)NC(=O)CNC(=O)[C@H](CCCNC(=N)N)NC(=O)[C@H](CCC(N)=O)NC(=O)[C@@H](NC(=O)[C@@H](N)CC(C)C)[C@@H](C)CC)C(=O)N[C@@H](CCCCN)C(=O)N[C@@H](Cc1ccccc1)C(=O)N[C@@H](CCCCN)C(=O)NCC(=O)N[C@@H](CCCCN)C(=O)N[C@@H](C)C(=O)NCC(=O)N[C@@H](Cc1c[nH]c2ccccc12)C(=O)N[C@H](C(=O)N[C@H](C(=O)NCC(=O)O)C(C)C)[C@@H](C)O
HC50 (rat erythrocytes; haemolysis; 1 h, 37 °C, 2% erythrocytes in PBS): 3.23 log10 µg/mL

CNC(=O)C[C@H](Cc1ccncc1)NC(=O)[C@@H](Cc1cccc(Br)c1)NC(=O)[C@@H](N)Cc1cccc(F)c1
viability (Huh-7-ACE2; CellTiter-Glo; 0.0244 µM, 48 h, unit not given; reference: DMSO): 0.969 and 0.906 and 0.923

COc1cc(/C=C/C(=O)Oc2ccc(C(F)(F)F)c(C(F)(F)F)c2)ccc1O
subcytotoxic concentration (HaCaT; MTT; 24 h, 10% FBS): 5 µM

CCN(CCCCOc1ccc(CCC(=O)N2CCC(Cc3ccccc3)CC2)cc1OC)Cc1ccccc1
efflux ratio (Caco-2 monolayer; 40 µM, 120 min): 1.39

CSCC[C@H](NC(=O)[C@H](CCCCN)NC(=O)[C@H](CC(N)=O)NC(=O)[C@H](C)NC(=O)[C@H](C)NC(=O)[C@H](CCCCN)NC(=O)[C@H](C)NC(=O)[C@@H](NC(=O)CNC(=O)[C@H](Cc1c[nH]c2ccccc12)NC(=O)[C@H](Cc1ccc(O)cc1)NC(=O)[C@H](CC(C)C)NC(=O)[C@H](CCCCN)NC(=O)CNC(=O)[C@@H](NC(=O)[C@H](Cc1c[nH]c2ccccc12)NC(=O)CNC(=O)[C@H](Cc1ccccc1)NC(=O)[C@H](CCCCN)NC(=O)[C@H](CC(C)C)NC(=O)[C@@H](NC(=O)[C@@H](NC(=O)[C@H](CCCNC(=N)N)NC(=O)[C@H](Cc1c[nH]c2ccccc12)NC(=O)CN)[C@@H](C)O)C(C)C)C(C)C)C(C)C)C(=O)N[C@@H](C)C(=O)N[C@@H](CCCNC(=N)N)C(=O)N[C@@H](Cc1ccc(O)cc1)C(=O)N[C@@H](CC(C)C)C(=O)N[C@H](C(=O)N[C@@H](CCCCN)C(=O)N[C@@H](C)C(=O)N[C@H](C(=O)N[C@@H](Cc1ccc(O)cc1)C(=O)NCC(=O)N[C@@H](CCCNC(=N)N)C(=O)N[C@H](C(=O)N[C@@H](CCCNC(=N)N)C(=O)N[C@@H](CCCCN)C(=O)N[C@@H](CC(=O)O)C(=O)N[C@@H](C)C(=O)O)C(C)C)C(C)C)[C@@H](C)O
IC50 (HUVEC; cytotoxicity, MTT; 24 h, 37 °C): 16.9 µM

CC[C@H](C)[C@H](NC(=O)[C@H](CCCCN)NC(=O)[C@H](CC(N)=O)NC(=O)CNC(=O)[C@@H](NC(=O)[C@H](C)NC(=O)[C@H](CCCNC(=N)N)NC(=O)[C@H](CC(C)C)NC(=O)[C@H](CCCCN)NC(=O)[C@H](CCCCN)NC(=O)[C@H](CCCCN)NC(=O)[C@H](C)NC(=O)[C@H](CCCCN)NC(=O)[C@@H]1CSSC[C@H](NC(=O)[C@H](CCCNC(=N)N)NC(=O)CN)C(=O)N[C@@H](CC(N)=O)C(=O)N[C@@H](CC(C)C)C(=O)N[C@@H](CC(C)C)C(=O)N1)C(C)C)C(=O)N[C@@H](CCCCN)C(=O)N[C@@H](CCC(=O)O)C(=O)N[C@H](C(=O)N[C@@H](CCCCN)C(=O)N[C@@H](CC(N)=O)C(=O)N[C@H](C(=O)N[C@H](C(=O)N[C@@H](Cc1ccccc1)C(=O)N[C@@H](CC(N)=O)C(=O)N[C@@H](CCCNC(=N)N)C(=O)O)C(C)C)C(C)C)[C@@H](C)CC
hemolysis (human erythrocytes; 40 µM, 30 min, 37 °C; reference: Triton X-100): 3.16 ± 0.67%

CC[C@H](C)[C@H](NC(=O)[C@H](C)NC(=O)[C@H](CCCCN)NC(=O)[C@H](CCCCN)NC(=O)[C@@H](N)CCCNC(=N)N)C(=O)N[C@@H](CCCCN)C(=O)N[C@@H](CC(C)C)C(=O)N[C@H](C(=O)N[C@@H](CCCCN)C(=O)N[C@@H](CCCCN)C(=O)N[C@@H](CC(C)C)C(=O)N[C@H](C(=O)N[C@@H](CCCCN)C(=O)N[C@@H](CCCCN)C(=O)N[C@@H](CC(C)C)C(=O)N[C@@H](CCCCN)C(=O)N[C@@H](CCCCN)C(=O)N[C@@H](C)C(=O)N[C@@H](CC(C)C)C(=O)N[C@@H](CCCCN)C(=O)O)C(C)C)C(C)C
viability (HeLa; cell growth or viability, MTT; 16 µg/mL): 78%

COc1cc(/C=C/C(=O)O)ccc1O
CC50 (HaCaT; cell growth or viability, MTT; 24 h): > 250 µM

CC[C@H](C)[C@H](NC(=O)[C@@H](NC(=O)[C@H](CCCCN)NC(=O)[C@H](CCCCN)NC(=O)[C@@H](NC(=O)[C@H](Cc1c[nH]c2ccccc12)NC(=O)[C@H](CCCCN)NC(=O)[C@H](CCCCN)NC(=O)[C@H](CC(C)C)NC(=O)[C@H](CCCNC(=N)N)NC(=O)[C@H](CCCCN)NC(=O)[C@@H](N)C(C)C)[C@@H](C)CC)C(C)C)C(N)=O
minimum haemolytic concentration (sheep red blood cells; 10% haemolysis; 1 h, 37 °C): > 256 µM

CNC(=O)CC[C@H](Cc1ccccc1)NC(=O)[C@@H](Cc1ccc(Cl)cc1Cl)NC(=O)[C@H](N)Cc1ccccc1[N+](=O)[O-]
viability (Huh-7-ACE2; CellTiter-Glo; 1.562 µM, 48 h, unit not given; reference: DMSO): 0.986 and 1.04 and 1.07

CC(C)C[C@H](NC(=O)[C@H](CCC(=O)O)NC(=O)[C@H](C)NC(=O)[C@H](CC(C)C)NC(=O)[C@H](CCC(=O)O)NC(=O)[C@H](C)NC(=O)[C@H](CCC(N)=O)NC(=O)[C@H](CC(C)C)NC(=O)[C@H](CCC(=O)O)NC(=O)[C@H](Cc1ccc(O)cc1)NC(=O)[C@H](CC(C)C)NC(=O)[C@H](CCC(N)=O)NC(=O)[C@H](C)NC(=O)[C@H](CCC(=O)O)NC(=O)[C@H](CC(C)C)NC(=O)[C@H](CCC(N)=O)NC(=O)[C@H](C)NC(=O)[C@H](CC(C)C)NC(=O)[C@H](CCC(=O)O)NC(=O)[C@H](C)NC(=O)[C@@H](N)CCC(N)=O)C(N)=O
LC50 (human erythrocytes; haemolysis): > 250 µM

CC[C@H](C)[C@H](N)C(=O)N[C@@H](CCCNC(=N)N)C(=O)N[C@H](C(=O)N[C@@H](Cc1c[nH]c2ccccc12)C(=O)N[C@@H](CCCCN)C(=O)N[C@@H](CCCCN)C(=O)N[C@H](C(=O)N[C@H](C(=O)N[C@@H](CCCNC(=N)N)C(=O)N[C@@H](CCCCN)C(=O)N[C@@H](CCSC)C(=O)N[C@@H](CCCCN)C(=O)N[C@@H](C)C(=O)N[C@H](C(=O)N[C@@H](Cc1ccc(O)cc1)C(=O)N[C@@H](Cc1c[nH]cn1)C(N)=O)[C@@H](C)CC)C(C)C)[C@@H](C)CC)C(C)C
hemolysis (rat erythrocytes; 200 µM, 60 min, 37 °C): 0.2 ± 0.1%

CC[C@H](C)[C@H](NC(=O)[C@H](C)NC(=O)[C@H](CCCCN)NC(=O)[C@H](CC(C)C)NC(=O)[C@@H](N)Cc1ccccc1)C(=O)N[C@@H](CCCCN)C(=O)N[C@@H](CCCCN)C(=O)N[C@@H](Cc1ccccc1)C(=O)NCC(=O)N[C@@H](CCCCN)C(=O)N[C@@H](CCC(=O)O)C(=O)N[C@@H](Cc1ccccc1)C(=O)N[C@@H](CCCCN)C(=O)N[C@@H](CCCCN)C(=O)N[C@H](C(=O)NCC(=O)N[C@@H](C)C(=O)N[C@@H](CCCCN)C(=O)N[C@@H](CC(C)C)C(=O)N[C@@H](CCCCN)C(=O)O)[C@@H](C)CC
viability (HaCaT; cell growth or viability, MTT; 32 µg/mL): 89.6%

CC[C@H](C)[C@H](NC(=O)[C@@H](NC(=O)[C@H](CCCCN)NC(=O)[C@H](CCCCN)NC(=O)[C@@H](NC(=O)[C@H](Cc1c[nH]c2ccccc12)NC(=O)[C@H](CCCCN)NC(=O)[C@H](Cc1c[nH]c2ccccc12)NC(=O)[C@H](CC(C)C)NC(=O)[C@H](CCCCN)NC(=O)[C@H](CCCCN)NC(=O)[C@@H](N)C(C)C)[C@@H](C)CC)C(C)C)C(N)=O
minimum haemolytic concentration (sheep red blood cells; 10% haemolysis; 1 h, 37 °C): 135 µM

CC[C@H](C)[C@H](NC(=O)[C@H](Cc1c[nH]c2ccccc12)NC(=O)[C@H](CCCCN)NC(=O)[C@H](CC(C)C)NC(=O)[C@@H](NC(=O)[C@@H](NC(=O)CNC(=O)[C@H](CCCCN)NC(=O)[C@H](Cc1c[nH]cn1)NC(=O)[C@H](CCCCN)NC(=O)[C@H](Cc1c[nH]c2ccccc12)NC(=O)[C@H](C)NC(=O)[C@H](CC(C)C)NC(=O)[C@H](CO)NC(=O)[C@@H](NC(=O)[C@H](Cc1ccc(O)cc1)NC(=O)[C@@H](N)CCCCN)C(C)C)[C@@H](C)O)[C@@H](C)CC)C(=O)N[C@@H](CC(N)=O)C(=O)N[C@@H](C)C(=O)NCC(=O)N[C@@H](CCC(N)=O)C(=O)N[C@@H](CO)C(=O)N[C@@H](Cc1ccccc1)C(=O)N[C@@H](CCC(=O)O)C(=O)N[C@@H](Cc1c[nH]c2ccccc12)C(=O)N[C@H](C(=O)N[C@@H](Cc1ccc(O)cc1)C(=O)N[C@@H](CCCCN)C(=O)N[C@@H](CCC(N)=O)C(=O)N[C@H](C(=O)N[C@@H](CCCCN)C(=O)N[C@@H](CCCCN)C(=O)N[C@@H](CC(C)C)C(=O)N[C@@H](Cc1c[nH]c2ccccc12)C(=O)N[C@@H](C)C(N)=O)[C@@H](C)CC)[C@@H](C)CC
HD50 (human erythrocytes; hemolysis; pH 7.2; reference: water complete hemolysis): 200 µg/mL

Excerpt of the above:
CNC(=O)C[C@H](Cc1ccncc1)NC(=O)[C@@H](Cc1cccc(Br)c1)NC(=O)[C@@H](N)Cc1ccsc1
viability (Huh-7-ACE2; CellTiter-Glo; 0.781 µM, 48 h, unit not given; reference: DMSO): 1.11 and 0.983 and 1.07

COc1cc(/C=C/C(=O)Oc2ccc(C(F)(F)F)c(C(F)(F)F)c2)ccc1O
subcytotoxic concentration (HaCaT; MTT; 24 h, 10% FBS): 5 µM
